Assay results from different studies.
Compare with care: the assays were run in different laboratories.

SMILES | organism | test | system | conditions | MIC
Cc1ccc(-c2nc3ccc(C)cn3c2CC(=O)NCc2ccc(N(C)C)cc2)cc1 | Mycobacterium kansasii | microbial growth |  | 6 days | 48.1 µM
CN[C@@H]1[C@H](O)[C@H](NC)[C@H]2O[C@]3(O)[C@H](O[C@@H]2[C@H]1O)O[C@H](C)C[C@H]3NC(=O)Cc1ccc(Cl)cn1 | Mycobacteroides abscessus | microbial growth | ATCC19977 |  | 50 to 100 µg/mL
Cc1ccc(CNC(=O)C(=O)c2c(C)nc3ccc(C)cn23)cc1 | Mycobacteroides abscessus |  | ATCC 19977 | 72 h | > 128 µM
CN[C@@H]1[C@H](O)[C@H](NC)[C@H]2O[C@]3(O)[C@H](O[C@@H]2[C@H]1O)O[C@H](C)C[C@H]3NC(=O)Cc1ccccc1 | Streptococcus pyogenes | microbial growth, broth dilution | ATCC700294 |  | 50 µg/mL
CCCCCCCCCCCCCCCCCCn1cc(CN(CCC(=O)NCCN(CCC(=O)NCCN(CCC(=O)NCCN(C)C)CCC(=O)NCCN(C)C)CCC(=O)NCCN(CCC(=O)NCCN(C)C)CCC(=O)NCCN(C)C)CCC(=O)NCCN(CCC(=O)NCCN(CCC(=O)NCCN(C)C)CCC(=O)NCCN(C)C)CCC(=O)NCCN(CCC(=O)NCCN(C)C)CCC(=O)NCCN(C)C)nn1 | Vibrio cholerae | LB broth microdilution |  | 18 h | 6 µg/mL
CO[C@H]1/C=C/O[C@@]2(C)Oc3c(C)c(O)c4c(c3C2=O)C2=NC3(CCN(CC(C)C)CC3)NC2=C(NC(=O)/C(C)=C\C=C\[C@H](C)[C@H](O)[C@@H](C)[C@@H](O)[C@@H](C)[C@H](OC(=O)c2cccc(F)c2)[C@@H]1C)C4=O | Mycobacteroides abscessus |  | RFB-R1 rifamycin-resistant | 90% growth inhibition | > 100 µM
Cc1ccc2nc(C)c(C(=O)NCc3ccccc3)n2c1 | Mycobacterium avium | microbial growth |  | 6 days | 15.7 µM
CO[C@H]1/C=C/O[C@@]2(C)Oc3c(C)c(O)c4c(c3C2=O)C2=NC3(CCN(CC(C)C)CC3)NC2=C(NC(=O)/C(C)=C\C=C\[C@H](C)[C@H](O)[C@@H](C)[C@@H](O)[C@@H](C)[C@H](OC(=O)c2cccnc2)[C@@H]1C)C4=O | Mycobacteroides abscessus |  | RFB-R1 rifamycin-resistant | 90% growth inhibition | > 100 µM
Nc1ccccc1C(=O)OCC#CCOC(=O)c1ccccc1N | Pichia kudriavzevii | microbial growth, broth dilution | ATCC6258 |  | > 128 µg/mL
CN[C@@H]1[C@H](O)[C@H](NC)[C@H]2O[C@]3(O)[C@H](O[C@@H]2[C@H]1O)O[C@H](C)C[C@H]3NC(=O)Cc1ccc(F)cn1 | Proteus vulgaris | microbial growth, broth dilution | ATCC33420 |  | > 200 µg/mL
C#CCNC(=O)C(C)(C)O/N=C(\C(=O)N[C@@H]1C(=O)N(S(=O)(=O)O)[C@H]1C)c1csc(N)n1 | Salmonella enterica | microbial growth, agar dilution | TYPHI |  | 4 µg/mL
CO[C@H]1O[C@H](COC(c2ccccc2)(c2ccccc2)c2ccccc2)[C@@H](OS(=O)(=O)c2ccccc2)[C@H](OS(=O)(=O)c2ccccc2)[C@H]1OS(=O)(=O)c1ccccc1 | Salmonella enterica | microbial growth, broth dilution | TYPHI |  | 1 µg/mL
CN[C@@H]1[C@H](O)[C@H](NC)[C@H]2O[C@]3(O)[C@H](O[C@@H]2[C@H]1O)O[C@H](C)C[C@H]3NC(=O)Cc1cscn1 | Streptococcus pyogenes | microbial growth, broth dilution | ATCC700294 |  | 6.25 µg/mL
Cc1ccc2nc(C)c(C(=O)C(=O)NCc3ccccc3)n2c1 | Mycobacterium kansasii | microbial growth |  | 6 days | 63.4 µM
O=C(c1ccccc1O)c1[nH]c(Cl)c(Cl)c1-n1c(C(=O)c2ccccc2O)cc(Cl)c1Cl | Vibrio cholerae |  | El Tor |  | > 64 µM
CN[C@H](CC(C)C)C(=O)N[C@H]1C(=O)N[C@@H](CC(N)=O)C(=O)N[C@H]2C(=O)N[C@H]3C(=O)N[C@H](C(=O)N[C@H](C(=O)O)c4cc(O)cc(O)c4-c4cc3ccc4O)[C@H](O)c3ccc(c(Cl)c3)Oc3cc2cc(c3O[C@@H]2O[C@H](CO)[C@@H](O)[C@H](O)[C@H]2O[C@H]2C[C@](C)(N)[C@H](O)[C@H](C)O2)Oc2ccc(cc2Cl)[C@H]1O | Salmonella enterica | microbial growth, broth dilution | CHOLERAESUIS |  | 32 µM

For quick reference, copied from above:
SMILES | organism | test | system | conditions | MIC
CO[C@H]1/C=C/O[C@@]2(C)Oc3c(C)c(O)c4c(c3C2=O)C2=NC3(CCN(CC(C)C)CC3)NC2=C(NC(=O)/C(C)=C\C=C\[C@H](C)[C@H](O)[C@@H](C)[C@@H](O)[C@@H](C)[C@H](OC(=O)c2cccnc2)[C@@H]1C)C4=O | Mycobacteroides abscessus |  | RFB-R1 rifamycin-resistant | 90% growth inhibition | > 100 µM
Nc1ccccc1C(=O)OCC#CCOC(=O)c1ccccc1N | Pichia kudriavzevii | microbial growth, broth dilution | ATCC6258 |  | > 128 µg/mL
